Measurements gathered from unrelated publications.
± gives the spread as reported.
Ahr: Aryl hydrocarbon receptor (Ahr, Mus musculus, UniProt P30561)
Sequence of UniProt P30561 (whole entry, looked up): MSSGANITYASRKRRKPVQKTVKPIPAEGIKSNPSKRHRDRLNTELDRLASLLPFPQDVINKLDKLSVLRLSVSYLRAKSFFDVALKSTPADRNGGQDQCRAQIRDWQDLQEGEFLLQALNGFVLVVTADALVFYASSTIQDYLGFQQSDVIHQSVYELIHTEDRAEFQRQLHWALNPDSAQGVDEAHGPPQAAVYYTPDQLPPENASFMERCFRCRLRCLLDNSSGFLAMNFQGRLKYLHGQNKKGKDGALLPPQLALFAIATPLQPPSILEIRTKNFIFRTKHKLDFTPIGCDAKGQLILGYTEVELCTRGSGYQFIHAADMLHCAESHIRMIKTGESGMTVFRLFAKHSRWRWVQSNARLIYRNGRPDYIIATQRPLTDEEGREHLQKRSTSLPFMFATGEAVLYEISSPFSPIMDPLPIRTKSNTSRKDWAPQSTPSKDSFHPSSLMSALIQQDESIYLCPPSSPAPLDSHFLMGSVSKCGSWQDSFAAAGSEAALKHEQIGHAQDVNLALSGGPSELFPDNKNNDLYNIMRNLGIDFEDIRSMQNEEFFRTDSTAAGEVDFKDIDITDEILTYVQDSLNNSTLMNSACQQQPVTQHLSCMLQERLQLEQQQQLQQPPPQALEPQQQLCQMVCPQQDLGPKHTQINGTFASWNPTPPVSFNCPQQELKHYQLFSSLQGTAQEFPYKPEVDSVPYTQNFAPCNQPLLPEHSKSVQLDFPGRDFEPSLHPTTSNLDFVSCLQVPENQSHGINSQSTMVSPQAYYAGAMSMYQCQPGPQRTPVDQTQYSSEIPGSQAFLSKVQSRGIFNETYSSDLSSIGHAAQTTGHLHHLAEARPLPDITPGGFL
CYP1A1: Cytochrome P450 1A1 (CYP1A1, Homo sapiens, UniProt P04798)
Sequence of UniProt P04798 (whole entry, looked up): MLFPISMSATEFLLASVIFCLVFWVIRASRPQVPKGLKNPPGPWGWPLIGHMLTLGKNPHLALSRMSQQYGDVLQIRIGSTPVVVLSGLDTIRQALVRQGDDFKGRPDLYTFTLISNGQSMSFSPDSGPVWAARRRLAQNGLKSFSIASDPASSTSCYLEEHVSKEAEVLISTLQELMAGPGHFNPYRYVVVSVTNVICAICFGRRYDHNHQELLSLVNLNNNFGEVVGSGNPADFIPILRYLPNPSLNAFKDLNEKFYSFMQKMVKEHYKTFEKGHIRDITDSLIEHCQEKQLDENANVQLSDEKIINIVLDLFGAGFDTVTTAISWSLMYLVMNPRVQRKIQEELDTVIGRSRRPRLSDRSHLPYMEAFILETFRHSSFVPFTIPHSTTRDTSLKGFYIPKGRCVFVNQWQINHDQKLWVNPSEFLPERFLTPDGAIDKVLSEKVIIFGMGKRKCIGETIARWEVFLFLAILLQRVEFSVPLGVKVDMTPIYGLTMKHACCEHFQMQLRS
CYP2B6: Cytochrome P450 2B6 (CYP2B6, Homo sapiens, UniProt P20813)
Sequence of UniProt P20813 (whole entry, looked up): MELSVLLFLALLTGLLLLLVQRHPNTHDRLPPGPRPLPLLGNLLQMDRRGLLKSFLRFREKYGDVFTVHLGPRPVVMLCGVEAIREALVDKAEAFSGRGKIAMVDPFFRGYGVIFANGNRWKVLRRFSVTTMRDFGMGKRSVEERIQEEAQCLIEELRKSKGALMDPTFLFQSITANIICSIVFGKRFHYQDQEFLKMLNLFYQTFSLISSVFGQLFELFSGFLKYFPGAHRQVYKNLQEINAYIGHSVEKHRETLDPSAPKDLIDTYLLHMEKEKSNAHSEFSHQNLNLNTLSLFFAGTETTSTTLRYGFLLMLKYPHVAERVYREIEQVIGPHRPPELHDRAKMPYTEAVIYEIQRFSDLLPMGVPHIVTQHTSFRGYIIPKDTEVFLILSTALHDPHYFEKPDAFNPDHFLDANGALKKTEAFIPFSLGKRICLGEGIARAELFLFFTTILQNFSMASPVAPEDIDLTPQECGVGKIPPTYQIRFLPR
Abcb1a N83Q/N87Q/N90Q: ATP-dependent translocase ABCB1 (Abcb1a, Mus musculus, UniProt P21447, N83Q/N87Q/N90Q)
Sequence of UniProt P21447 (whole entry, unmodified, looked up): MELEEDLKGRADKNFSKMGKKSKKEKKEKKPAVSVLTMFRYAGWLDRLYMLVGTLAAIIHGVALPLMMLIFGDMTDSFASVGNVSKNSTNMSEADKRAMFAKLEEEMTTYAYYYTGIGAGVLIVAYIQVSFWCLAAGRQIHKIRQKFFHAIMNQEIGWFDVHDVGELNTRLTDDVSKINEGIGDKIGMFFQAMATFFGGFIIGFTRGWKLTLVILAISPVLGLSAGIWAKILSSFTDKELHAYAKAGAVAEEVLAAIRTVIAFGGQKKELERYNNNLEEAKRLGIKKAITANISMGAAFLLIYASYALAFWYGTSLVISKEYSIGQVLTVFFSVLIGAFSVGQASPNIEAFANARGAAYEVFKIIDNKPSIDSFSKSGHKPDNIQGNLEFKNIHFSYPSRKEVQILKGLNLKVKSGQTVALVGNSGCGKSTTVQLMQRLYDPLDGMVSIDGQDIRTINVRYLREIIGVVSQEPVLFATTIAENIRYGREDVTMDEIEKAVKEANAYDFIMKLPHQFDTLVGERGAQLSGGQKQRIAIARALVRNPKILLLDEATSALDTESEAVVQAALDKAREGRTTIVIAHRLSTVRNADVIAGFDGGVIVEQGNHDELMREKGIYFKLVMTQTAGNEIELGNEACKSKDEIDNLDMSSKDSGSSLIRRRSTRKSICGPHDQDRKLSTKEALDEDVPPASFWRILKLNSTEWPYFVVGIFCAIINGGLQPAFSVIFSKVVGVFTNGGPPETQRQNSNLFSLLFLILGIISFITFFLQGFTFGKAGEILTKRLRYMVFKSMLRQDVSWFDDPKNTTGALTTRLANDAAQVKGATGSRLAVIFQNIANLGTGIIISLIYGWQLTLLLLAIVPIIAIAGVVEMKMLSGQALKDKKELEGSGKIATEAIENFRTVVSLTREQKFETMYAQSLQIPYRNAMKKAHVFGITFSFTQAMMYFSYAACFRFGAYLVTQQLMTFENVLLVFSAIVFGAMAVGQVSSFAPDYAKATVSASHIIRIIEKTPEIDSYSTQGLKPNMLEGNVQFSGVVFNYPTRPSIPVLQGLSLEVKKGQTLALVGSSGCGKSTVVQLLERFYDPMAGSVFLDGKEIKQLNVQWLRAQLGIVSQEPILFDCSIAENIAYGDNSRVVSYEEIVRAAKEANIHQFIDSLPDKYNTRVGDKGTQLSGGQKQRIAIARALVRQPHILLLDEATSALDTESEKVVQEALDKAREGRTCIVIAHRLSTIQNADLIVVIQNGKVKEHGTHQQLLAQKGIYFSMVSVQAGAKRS
CYP1B1: Cytochrome P450 1B1 (CYP1B1, Homo sapiens, UniProt Q16678)
CYP2D6: Cytochrome P450 2D6 (CYP2D6, Homo sapiens, UniProt P10635)
Sequence of UniProt P10635 (whole entry, looked up): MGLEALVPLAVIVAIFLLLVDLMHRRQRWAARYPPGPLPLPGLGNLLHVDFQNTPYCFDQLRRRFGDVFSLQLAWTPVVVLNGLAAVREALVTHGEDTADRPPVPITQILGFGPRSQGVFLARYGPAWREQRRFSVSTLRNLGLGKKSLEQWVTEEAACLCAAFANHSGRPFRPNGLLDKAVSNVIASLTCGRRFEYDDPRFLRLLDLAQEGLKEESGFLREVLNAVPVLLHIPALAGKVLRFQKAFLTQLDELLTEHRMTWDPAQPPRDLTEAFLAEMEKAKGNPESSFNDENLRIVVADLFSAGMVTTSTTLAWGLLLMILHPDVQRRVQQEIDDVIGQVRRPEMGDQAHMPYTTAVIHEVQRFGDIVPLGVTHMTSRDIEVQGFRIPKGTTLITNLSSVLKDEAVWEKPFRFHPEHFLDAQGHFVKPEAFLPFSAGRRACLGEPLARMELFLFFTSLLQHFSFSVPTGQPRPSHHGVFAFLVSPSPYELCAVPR
KCNH2: Voltage-gated inwardly rectifying potassium channel KCNH2 (KCNH2, Homo sapiens, UniProt Q12809)
Sequence of UniProt Q12809 (whole entry, looked up): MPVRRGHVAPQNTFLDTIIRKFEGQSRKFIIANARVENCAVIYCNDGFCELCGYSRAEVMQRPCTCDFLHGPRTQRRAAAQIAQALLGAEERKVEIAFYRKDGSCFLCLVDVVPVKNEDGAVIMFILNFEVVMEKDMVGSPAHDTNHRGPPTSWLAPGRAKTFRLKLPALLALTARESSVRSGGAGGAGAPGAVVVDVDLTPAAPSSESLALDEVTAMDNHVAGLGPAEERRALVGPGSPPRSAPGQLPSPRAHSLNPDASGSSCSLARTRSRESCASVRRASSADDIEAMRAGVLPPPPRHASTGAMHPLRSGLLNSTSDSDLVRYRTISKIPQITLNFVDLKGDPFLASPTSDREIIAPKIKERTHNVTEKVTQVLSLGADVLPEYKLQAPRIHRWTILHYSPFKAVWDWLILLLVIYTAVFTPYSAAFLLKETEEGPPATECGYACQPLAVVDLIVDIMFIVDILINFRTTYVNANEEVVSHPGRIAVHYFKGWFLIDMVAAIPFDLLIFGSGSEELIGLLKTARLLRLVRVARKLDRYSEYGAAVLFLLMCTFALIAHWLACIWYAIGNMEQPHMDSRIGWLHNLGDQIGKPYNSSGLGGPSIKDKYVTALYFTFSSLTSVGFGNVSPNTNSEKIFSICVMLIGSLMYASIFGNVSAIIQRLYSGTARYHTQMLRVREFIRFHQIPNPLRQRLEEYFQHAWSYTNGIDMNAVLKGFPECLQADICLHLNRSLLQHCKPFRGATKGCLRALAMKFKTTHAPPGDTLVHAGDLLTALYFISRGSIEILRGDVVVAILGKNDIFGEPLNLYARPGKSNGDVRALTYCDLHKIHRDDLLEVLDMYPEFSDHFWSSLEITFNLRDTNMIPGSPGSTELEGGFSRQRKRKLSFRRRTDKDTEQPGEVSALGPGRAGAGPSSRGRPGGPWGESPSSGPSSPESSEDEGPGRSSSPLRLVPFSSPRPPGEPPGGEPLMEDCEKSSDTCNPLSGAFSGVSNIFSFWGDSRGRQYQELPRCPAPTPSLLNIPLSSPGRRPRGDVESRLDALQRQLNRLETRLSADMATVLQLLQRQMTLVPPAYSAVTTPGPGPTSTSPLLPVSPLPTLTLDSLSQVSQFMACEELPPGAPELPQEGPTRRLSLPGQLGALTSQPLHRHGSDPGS

Compound	target	test	system	conditions	IC50 [µM]
Clc1ccc(-c2ccc(Cl)c(Cl)c2)cc1Cl	Ahr	binding, competitor		in vitro expressed receptor, together with: [3H]TCDD	0.224
O=c1cc(-c2cccc(O)c2)oc2ccccc12	CYP1A1	enzyme activity, inhibitor, fluorescence			5
O=C(O)C(F)(F)C(F)(F)C(F)(F)C(F)(F)C(F)(F)F	CYP2B6	enzyme activity, inhibitor	Supersomes	together with: 7-ethoxy-4-trifluoromethylcoumarin substrate	> 100
C#CCOc1ccc(-c2cc(=O)c3ccccc3o2)cc1	CYP1A1	enzyme activity, inhibitor, fluorescence			0.65
Clc1ccc(-c2c(Cl)c(Cl)cc(Cl)c2Cl)c(Cl)c1	Abcb1a N83Q/N87Q/N90Q	ATPase activity, inhibitor		together with: 100 µM verapamil	23.6
Clc1ccc(-c2cc(Cl)c(Cl)c(Cl)c2Cl)cc1Cl	Ahr	binding, competitor		in vitro expressed receptor, together with: [3H]TCDD	1
O=C(Cc1ccccc1Nc1c(Cl)cccc1Cl)Oc1ccc(-c2cc(=S)ss2)cc1	CYP1B1	enzyme activity, inhibitor, fluorescence			2.4
O=S(=O)(O)C(F)(F)C(F)(F)C(F)(F)C(F)(F)C(F)(F)C(F)(F)C(F)(F)C(F)(F)F	CYP2B6	enzyme activity, inhibitor, fluorescence			30.6
Clc1ccc(-c2ccc(Cl)c(Cl)c2Cl)c(Cl)c1Cl	Ahr	binding, competitor		in vitro expressed receptor, together with: [3H]TCDD	6.31
Clc1ccccc1-c1c(Cl)c(Cl)c(Cl)c(Cl)c1Cl	Abcb1a N83Q/N87Q/N90Q	ATPase activity, inhibitor		together with: 100 µM verapamil	6.1
C[C@H](NC(C)(C)C)[C@@H](O)c1cccc(Cl)c1	CYP2D6	enzyme activity, inhibitor	human suspension hepatocytes	30 min, protein-free buffer, media concentrations, together with: dextromethorphan 1 µM	8.7
Clc1cc(Cl)cc(-c2c(Cl)cc(Cl)c(Cl)c2Cl)c1	Abcb1a N83Q/N87Q/N90Q	ATPase activity, inhibitor		together with: 100 µM verapamil	43.2
O=S(=O)(O)C(F)(F)C(F)(F)C(F)(F)C(F)(F)F	Cytochrome P450 2E1 (CYP2E1, Homo sapiens, UniProt P05181)	enzyme activity, inhibitor		Supersomes, together with: 7-MFC substrate	> 100
C#CCOc1cccc2oc(-c3ccccc3)cc(=O)c12	Cytochrome P450 1A2 (CYP1A2, Homo sapiens, UniProt P05177)	enzyme activity, inhibitor			0.38
Clc1cc(Cl)c(Cl)c(-c2c(Cl)cccc2Cl)c1Cl	Abcb1a N83Q/N87Q/N90Q	ATPase activity, inhibitor		together with: 100 µM verapamil	22
C#CCOc1ccc2oc(-c3ccccc3)cc(=O)c2c1	CYP1A1	enzyme activity, inhibitor, fluorescence			0.48
c1ccc2cc3c(ccc4ccccc43)cc2c1	CYP1B1				< 0.05
Clc1ccc(-c2cc(Cl)c(Cl)cc2Cl)cc1Cl	Abcb1a N83Q/N87Q/N90Q	ATPase activity, inhibitor		together with: 100 µM verapamil	15.9
C#CCOc1cccc(-c2cc(=O)c3ccccc3o2)c1	CYP1A1	enzyme activity, inhibitor, fluorescence			0.02
C=C(C[C@@]12C[C@@H](C)C[C@@H](O1)[C@H]1O[C@]3(C[C@H]1O2)NC[C@H](C)C[C@@H]3C)[C@H]1O[C@@](O)([C@@H](O)[C@@H]2C[C@H]3O[C@@]4(CC[C@]5(CC(C)=C[C@@H](/C=C/CCC(=O)O)O5)O4)[C@H](C)C[C@H]3O2)[C@H](C)C[C@@H]1C	KCNH2	ion current, inhibitor, thallium flux	HEK293 expressing hERG	15 min	5.1
Clc1cc(-c2cc(Cl)c(Cl)c(Cl)c2)cc(Cl)c1Cl	Abcb1a N83Q/N87Q/N90Q	ATPase activity, inhibitor		together with: 100 µM verapamil	9.7
O=c1cc(-c2ccccc2O)oc2ccccc12	CYP1A1	enzyme activity, inhibitor, fluorescence			17.7
Clc1cc(Cl)c(-c2cc(Cl)c(Cl)cc2Cl)cc1Cl	Abcb1a N83Q/N87Q/N90Q	ATPase activity, inhibitor		together with: 100 µM verapamil	21.8
C=C(C)[C@@H]1CCC(CO)=C[C@H]1c1c(O)cc(CCCCC)cc1O	CYP2B6	nicotine C-oxidation to cotinine, inhibitor	recombinant enzyme microsomes	together with: nicotine 500 µM	1.2 ± 0.44
CCCCCCCC[N+](CCCCCCCC)(CCCCCCCC)CCCCCCCC	KCNH2	ion current, inhibitor, thallium influx			0.24
O=C(O)C(F)(OC(F)(F)C(F)(F)C(F)(F)F)C(F)(F)F (stereo not drawn)	CYP2B6	enzyme activity, inhibitor	Supersomes	together with: 7-ethoxy-4-trifluoromethylcoumarin substrate	> 100
CN(C)c1ccc(C(=C2C=CC(=[N+](C)C)C=C2)c2ccccc2)cc1	KCNH2	thallium influx, inhibitor, confirmation	hERG-transduced cells		4.8 ± 0.8
C[C@H]1NC(C)(C)CO[C@]1(O)c1cccc(Cl)c1	CYP2D6	enzyme activity, inhibitor			5
Clc1ccc(-c2cc(Cl)c(Cl)c(Cl)c2)cc1Cl	Ahr	binding, competitor		in vitro expressed receptor, together with: [3H]TCDD	0.0126
COc1ccc([C@@H]2CC(=O)c3c(O)cc(O[C@@H]4O[C@H](CO[C@@H]5O[C@@H](C)[C@H](O)[C@@H](O)[C@H]5O)[C@@H](O)[C@H](O)[C@H]4O)cc3O2)cc1O	Solute carrier organic anion transporter family member 2B1 (SLCO2B1, Homo sapiens, UniProt O94956)	transporter uptake, inhibitor		pH 6	> 300

For quick reference, copied from above:
Compound	target	test	system	conditions	IC50 [µM]
c1ccc2cc3c(ccc4ccccc43)cc2c1	CYP1B1				< 0.05
Clc1ccccc1-c1c(Cl)c(Cl)c(Cl)c(Cl)c1Cl	Abcb1a N83Q/N87Q/N90Q	ATPase activity, inhibitor		together with: 100 µM verapamil	6.1
